Measurements collected from several papers.
Protocols differ between the studies behind these lines. ≈ marks a conversion by molar mass, not a printed value.
Organism: Enterococcus faecalis

For `O=C(O)c1ccc(-n2cc(CNc3ccc(Br)c(C(F)(F)F)c3)c(-c3cccc(F)c3)n2)cc1`, the MBEC was 8 × MIC (ATCC 29212; biofilm, Calgary device).
For `CN[C@H](CC(C)C)C(=O)N[C@H]1C(=O)N[C@@H](CC(N)=O)C(=O)N[C@H]2C(=O)N[C@H]3C(=O)N[C@H](C(=O)N[C@H](C(=O)O)c4cc(O)cc(O)c4-c4cc3ccc4O)[C@H](O)c3ccc(c(Cl)c3)Oc3cc2cc(c3O[C@@H]2O[C@H](CO)[C@@H](O)[C@H](O)[C@H]2O[C@H]2C[C@](C)(N)[C@H](O)[C@H](C)O2)Oc2ccc(cc2Cl)[C@H]1O`, the MIC50 was 2 µg/mL (≈ 1.38 µM) (compound-intermediate; pH 7.0).
With `CN(C)[C@@H]1C(O)=C(C(N)=O)C(=O)[C@@]2(O)C(O)=C3C(=O)c4c(O)c(N)nc(F)c4C[C@H]3C[C@@H]12.Cl.Cl` the MIC was 0.5 µg/mL (broth microdilution CLSI; ATCC 29212).
The MBC of `O=C(O)CN(CCN(CC(=O)O)CC(=O)O)CC(=O)O` is reported as greater than 2000 µM (OG1RF; 24 h).
`Cc1ccc2[nH]nc(-c3nnc(Nc4ccc(O)cc4)s3)c2c1` gave an MIC of 3.9 µg/mL (≈ 12.1 µM) (ATCC 2942).
For `C=C[C@]1(C)C[C@@H](OC(=O)CS[C@@H]2C[C@H]3CC[C@@H](C2)N3C)[C@]2(C)[C@H](C)CC[C@]3(CCC(=O)[C@H]32)[C@@H](C)[C@@H]1O`, the MIC90 was greater than 128 µg/mL (agar dilution; vancomycin-intermediate; 20 isolates).
For `CN[C@H](CC(C)C)C(=O)N[C@H]1C(=O)N[C@@H](CC(N)=O)C(=O)N[C@H]2C(=O)N[C@H]3C(=O)N[C@H](C(=O)N[C@H](C(=O)O)c4cc(O)cc(O)c4-c4cc3ccc4O)[C@H](O)c3ccc(c(Cl)c3)Oc3cc2cc(c3O[C@@H]2O[C@H](CO)[C@@H](O)[C@H](O)[C@H]2O[C@H]2C[C@](C)(N)[C@H](O)[C@H](C)O2)Oc2ccc(cc2Cl)[C@H]1O`, the MBC was greater than 32 µg/mL (ATCC 29212; 1 strain).
The MBEC of `O=C(O)c1ccc(-n2cc(CNc3ccc(Cl)c(C(F)(F)F)c3)c(-c3cccc(F)c3)n2)cc1` is reported as 4 × MIC (ATCC 29212; biofilm, Calgary device).
`CC(=O)NC[C@H]1CN(c2ccc(N3CCOCC3)c(F)c2)C(=O)O1` gave an MIC50 of 2 µg/mL (≈ 5.93 µM) (vancomycin-intermediate, 10 isolates; serum 0%).
`Cc1c2c(nn1C)CSCc1cc(n(C)n1)CSc1cc(c3ccccc3c1)OCCCc1c(C(=O)O)n(C)c3c-2c(Cl)ccc13`: “number of isolates” 3 (broth microdilution MIC; 12.5 µM).
`Cc1cc(Nc2nnc(-c3n[nH]c4ccc(C)cc34)s2)cc([N+](=O)[O-])c1` has an MIC of 122 µg/mL (≈ 334 µM) (ATCC 2942).
With `O=C(O)c1ccc(-n2cc(CNc3cc(Br)cc(C(F)(F)F)c3)c(-c3ccc(F)c(F)c3)n2)cc1` the biofilm MIC was 1 × planktonic MIC (ATCC 29212; 24 h, preformed biofilm).
For `c1ccc(CN(CCN(Cc2ccccn2)Cc2ccccn2)Cc2ccccn2)nc1`, the MBC was 500 µM (Calgary Biofilm Device; OG1RF, biofilm; 24 h).
`Cc1ccc2[nH]nc(-c3nnc(Nc4ccc(C(F)(F)F)cc4)s3)c2c1` has an MIC of 7.8 µg/mL (≈ 20.8 µM) (ATCC 2942).

Repeated from above:
For `c1ccc(CN(CCN(Cc2ccccn2)Cc2ccccn2)Cc2ccccn2)nc1`, the MBC was 500 µM (Calgary Biofilm Device; OG1RF, biofilm; 24 h).
